Measurements pooled from the literature.
Protocols differ between the studies behind these lines. ± marks the error that the study gave.

Compound = CN[C@@](C)(C[18F])C(=O)O; test system = SCID mice (SK-OV-3 xenograft); conditions = 30 min after injection; endpoint = tumour uptake; result = 6.4 ± 3.3 %ID/g
Compound = [123I]c1cncc(OC[C@@H]2CCN2)c1; test = SPECT; test system = human, frontal lobe; conditions = intravenous bolus, 8.6 mCi; scale = relative to: tissue over plasma; endpoint = tissue/plasma ratio; result = 12.8
Compound = COC(=O)N[C@H](C(=O)N1CCC[C@H]1C(=O)Nc1ccc([C@@H]2CC[C@@H](c3ccc(NC(=O)[C@@H]4CCCN4C(=O)[C@@H](NC(=O)OC)C(C)C)cc3)N2c2ccc(C(C)(C)C)cc2)cc1)C(C)C; test system = healthy human volunteers, plasma; conditions = oral, dose not given, added: pravastatin plus 2D regimen; endpoint = AUC(0-24); result = 1010 ng·h/mL
Compound = CC[C@H](C)[C@H](NC(=O)[C@H](CC(C)C)NC(=O)[C@H](Cc1c[nH]c2ccccc12)NC(=O)[C@H](CCC(N)=O)NC(=O)[C@@H](NC(=O)[C@H](Cc1ccccc1)NC(=O)[C@H](C)NC(=O)[C@H](CCCCNC(=O)COCCOCCNC(=O)COCCOCCNC(=O)CC[C@H](NC(=O)CCCCCCCCCCCCCCCCCCC(=O)O)C(=O)O)NC(=O)[C@H](CCC(N)=O)NC(=O)[C@H](C)NC(=O)[C@@H](NC(=O)[C@H](CCCCN)NC(=O)[C@H](CC(=O)O)NC(=O)[C@H](CC(C)C)NC(=O)C(C)(C)NC(=O)[C@@H](NC(=O)[C@H](CO)NC(=O)[C@H](Cc1ccc(O)cc1)NC(=O)[C@H](CC(=O)O)NC(=O)[C@H](CO)NC(=O)[C@@H](NC(=O)[C@H](Cc1ccccc1)NC(=O)[C@@H](NC(=O)CNC(=O)[C@H](CCC(=O)O)NC(=O)C(C)(C)NC(=O)[C@@H](N)Cc1ccc(O)cc1)[C@@H](C)O)[C@@H](C)O)[C@@H](C)CC)[C@@H](C)CC)C(C)C)C(=O)N[C@@H](C)C(=O)NCC(=O)NCC(=O)N1CCC[C@H]1C(=O)N[C@@H](CO)C(=O)N[C@@H](CO)C(=O)NCC(=O)N[C@@H](C)C(=O)N1CCC[C@H]1C(=O)N1CCC[C@H]1C(=O)N1CCC[C@H]1C(=O)N[C@@H](CO)C(N)=O; test system = human, normal hepatic function, plasma; conditions = subcutaneous, 5 mg single dose, geometric mean; endpoint = AUC(0-tlast); result = 82200 ng·h/mL
Compound = Cc1c(P(=S)(c2ccccc2)c2ccccc2)n2ccccc2[n+]1C/C=C/c1ccccc1; test system = mouse, plasma; conditions = intraperitoneal, 10 mg/kg, 4 h; endpoint = plasma concentration; result = 114 ng/mL
Compound = COc1c(OCCCN2CCOCC2)ccc2c1N=C(NC(=O)c1cnc(N)nc1)N1CCN=C21; test = measured: plasma glucose and insulin; test system = patients with advanced cancers; conditions = intravenous, dose not given, added: gemcitabine or cisplatin-gemcitabine; endpoint = time to resolution; result = 24 to 48 h
Compound = CC[C@H](C)[C@@H]1NC(=O)[C@H]([C@@H](C)O)NC(=O)[C@@H](NC(=O)[C@H](Cc2ccccc2)NC(=O)[C@H](C)NC(=O)[C@H](CCCCN)NC(=O)[C@H](CCCCN)NC(=O)[C@H](CC(C)C)NC(=O)[C@@H](NC(=O)[C@H](CCCCN)NC(=O)[C@H](C)NC(=O)[C@H](C)NC(=O)[C@@H](NC(=O)CNC(=O)[C@H](C)NC(=O)[C@@H](NC(=O)[C@H](CCCCN)NC(=O)[C@@H]2CCCN2C(=O)[C@H](Cc2ccccc2)NC(=O)[C@@H](N)Cc2ccccc2)C(C)C)C(C)C)C(C)C)CSSC[C@@H](C(=O)O)NC(=O)[C@H](CCCCN)NC(=O)[C@H](CCCCN)NC(=O)[C@H](CO)NC1=O; test = haemolysis; test system = horse erythrocytes; conditions = 2 h, 37 °C; endpoint = HC10; result = 2.51 µM
Compound = COc1cc2cc(-c3ccc(CC(=O)Nc4cc(C(C)(C)C(F)(F)F)no4)cn3)cnc2cc1OC; test = CPK increase or myositis; test system = human patients; conditions = oral, dose not given, with dose interruption; endpoint = time to resolution; result = < 2 weeks
Compound = CCCCCOc1ccc(-c2ccc(-c3ccc(C(=O)N[C@H]4C[C@@H](O)[C@@H](O)NC(=O)[C@@H]5[C@@H](O)[C@@H](C)CN5C(=O)[C@H]([C@@H](C)O)NC(=O)[C@H]([C@H](O)[C@@H](O)c5ccc(O)cc5)NC(=O)[C@@H]5C[C@@H](O)CN5C(=O)[C@H]([C@@H](C)O)NC4=O)cc3)cc2)cc1; test = noncompartmental; test system = human neonates not on ECMO, plasma; conditions = intravenous, 1.5 mg/kg/day maintenance, doses 3-5; endpoint = median AUC at steady state; result = 81900 ng·h/mL
Compound = COc1ccc(-c2cc(=O)c3c(OC)c(OC)c(OC)cc3o2)cc1; test system = C57BL/6 mouse, male, liver; conditions = oral, 1% w/w in diet, 6 weeks, orange peel extract diet; scale = relative to: content in orange peel; endpoint = tissue to peel content ratio; result = 0.035%
Compound = CC(C)C[C@H](NC(=O)[C@H](CCC(=O)O)NC(=O)[C@H](CCC(=O)O)NC(=O)[C@H](CC(=O)O)NC(=O)[C@H](CCC(=O)O)NC(=O)[C@H](CCC(=O)O)NC(=O)[C@H](CCC(=O)O)NC(=O)[C@@H](N)CC(=O)O)C(=O)O; test system = rat, plasma; conditions = subcutaneous, 11.0 mg/kg single dose, 15 min; endpoint = plasma concentration; result = 3400 ng/mL
Compound = CSCC[C@@H]1NC(=O)[C@H](CC(=O)O)NC(=O)CNC(=O)[C@H](CCCNC(=N)N)NC(=O)[C@H](C)NC(=O)[C@H](CCC(=O)O)NC(=O)[C@H](CCCNC(=N)N)NC(=O)[C@@H]2CSSC[C@@H]3NC(=O)[C@H](CO)NC(=O)[C@H]([C@@H](C)O)NC(=O)[C@@H]4CCCN4C(=O)[C@H](C)NC(=O)[C@H](Cc4c[nH]c5ccccc45)NC(=O)[C@H](CC(=O)O)NC(=O)CNC(=O)[C@H](CCCNC(=N)N)NC(=O)CNC(=O)[C@H](CCC(N)=O)NC(=O)[C@@H]4CCCN4C(=O)[C@@H](NC(=O)CNC(=O)C(C)F)CSSC[C@H](NC(=O)CNC(=O)[C@H](C)NC(=O)[C@H](CC(C)C)NC(=O)[C@H](CSSC[C@@H](C(=O)NCC(N)=O)NC(=O)[C@H]([C@@H](C)O)NC(=O)[C@H](CCCNC(=N)N)NC(=O)[C@@H]4CCCN4C1=O)NC(=O)[C@H](CC(=O)O)NC(=O)[C@H](CO)NC(=O)[C@H](CC(=O)O)NC(=O)[C@H](CCC(N)=O)NC(=O)[C@H](CO)NC3=O)C(=O)N[C@@H](C(C)C)C(=O)N2 (stereo partly drawn) [fluorine-18 labelled]; test system = nude mice U-87 MG xenograft, bone; conditions = intravenous, 1 h; endpoint = tissue uptake; result = 0.48 ± 0.21 %ID/g

Excerpt of the above:
Compound = CSCC[C@@H]1NC(=O)[C@H](CC(=O)O)NC(=O)CNC(=O)[C@H](CCCNC(=N)N)NC(=O)[C@H](C)NC(=O)[C@H](CCC(=O)O)NC(=O)[C@H](CCCNC(=N)N)NC(=O)[C@@H]2CSSC[C@@H]3NC(=O)[C@H](CO)NC(=O)[C@H]([C@@H](C)O)NC(=O)[C@@H]4CCCN4C(=O)[C@H](C)NC(=O)[C@H](Cc4c[nH]c5ccccc45)NC(=O)[C@H](CC(=O)O)NC(=O)CNC(=O)[C@H](CCCNC(=N)N)NC(=O)CNC(=O)[C@H](CCC(N)=O)NC(=O)[C@@H]4CCCN4C(=O)[C@@H](NC(=O)CNC(=O)C(C)F)CSSC[C@H](NC(=O)CNC(=O)[C@H](C)NC(=O)[C@H](CC(C)C)NC(=O)[C@H](CSSC[C@@H](C(=O)NCC(N)=O)NC(=O)[C@H]([C@@H](C)O)NC(=O)[C@H](CCCNC(=N)N)NC(=O)[C@@H]4CCCN4C1=O)NC(=O)[C@H](CC(=O)O)NC(=O)[C@H](CO)NC(=O)[C@H](CC(=O)O)NC(=O)[C@H](CCC(N)=O)NC(=O)[C@H](CO)NC3=O)C(=O)N[C@@H](C(C)C)C(=O)N2 (stereo partly drawn) [fluorine-18 labelled]; test system = nude mice U-87 MG xenograft, bone; conditions = intravenous, 1 h; endpoint = tissue uptake; result = 0.48 ± 0.21 %ID/g
